Measurements gathered from unrelated publications.
Lines come from different studies, so protocols differ. Several values in a cell are separate wells, animals, samples, runs or records. ± gives the spread as reported.

CC(C(=O)Nc1ccc(C2CCCCC2)cc1)n1cncn1 (stereo not shown) — hepatic clearance (mouse liver microsomes; 1 µM): 72 mL/min/kg
CCc1c(-c2ccccc2)c(-c2ccccc2)nn1-c1ccccc1-c1cccc(OCC(=O)O)c1 — concentration (Sprague-Dawley rat, -Kidney homogenate; oral, 10 mg/kg, 1 h): 745 ng/mL and 502 ng/mL
C[C@]12CC[C@@H]3c4ccc(O)cc4CC[C@H]3[C@@H]1CCC2=O — dose fraction in milk fat (whole cow milk; 20 nM nominal): 74.4%
C[C@@H](N)C1CCN(S(=O)(=O)c2cccc3cnccc23)CC1 — participants with headache (healthy volunteers; 25 mg, fasted): 16.7%
COc1cc(C(=O)NC2CCN(C)CC2)c(F)cc1Nc1ncc(C(F)(F)F)c(Oc2cccc3c2C(=O)N(C)C3)n1 — dose-normalised AUC(tau) at steady state (human patients, plasma; oral, 300 mg once daily repeated, geometric mean): 265 nmol·h/L per mg
C=C(NC(=O)c1nccc(OC)c1O)C(=O)O[C@@H](C)[C@H](OC(=O)C(C)C)[C@@H](Cc1ccccc1)C(=O)O — KFoc (soil adsorption; clay loam soil; pH 6.8, organic carbon 0.5 %): 19700 mL/g
NC1(C(=O)N[C@@H](CCO)c2ccc(Cl)cc2)CCN(c2nc[nH]c3nccc2-3)CC1 — incidence of Dysuria (metastatic CRPC patients; 480 mg b.i.d., grade 3 to 4, treatment-related, with: enzalutamide 160 mg daily): 0%
O=C(Nc1nc2cccc(-c3ccc(CN4CCS(=O)(=O)CC4)cc3)n2n1)C1CC1 — treatment-emergent adverse events (measured: investigations; human rheumatoid arthritis patients; oral, 200 mg once daily, 4 weeks, regardless of relatedness): 0%
CC(C)C[C@@H]1NC(=O)[C@H](C)N(C)C(=O)[C@H](Cc2ccccc2)NCc2cc(c[nH]2)CNC1=O — -log Pe (PAMPA; lecithin in dodecane; 100 µM, 17 h, pH 6.4, 37 °C): 7.53
C=CC(=O)Nc1cc(Nc2nccc(-c3cn(C4CC4)c4ccccc34)n2)c(OC)cc1N(C)CCN(C)C — relative error (autosampler stability; rat plasma; 160 ng/mL, 4 h, 10 °C; baseline: nominal concentration): 0.4%
Cc1ccc2c(c1)sc(-c1ccc(N(C)C)cc1)[n+]2C — excitation maximum wavelength (PBS; free dye): 408 nm
C=CC(=O)NC1CCN(c2ncc3ncnc(Nc4ccc(Oc5ccc6c(c5)ncn6C)c(C)c4)c3n2)CC1 — dose recovered as radioactivity (measured: total radioactivity; healthy male volunteers, urine; oral, 60 mg, 336 h post-dose, 14C-labelled, geometric mean): 1.25%
Cl.[2H]C([2H])([2H])CC(=O)c1cnc(NC(=O)C2CC2)cc1Nc1cccc(-c2ncn(C([2H])([2H])[2H])n2)c1OC — Cmax (human, fed, multiple dose; oral, 60 mg once daily, tablet, day 14, geometric mean): 504 ng/mL
COc1ccc2[nH]c([S+]([O-])Cc3ncc(C)c(OC)c3C)nc2c1 (stereo not shown) — AUC(0-inf) (healthy Chinese volunteers, plasma; oral, 20 mg, enteric-coated capsules, CYP2C19 intermediate metabolizers): 804 ± 532 ng·h/mL
C#C[C@]1(CO)O[C@@H](n2cnc3c(N)nc(F)nc32)C[C@@H]1O — Vz/F (human, plasma; oral, 400 mg, single dose, geometric mean): 1950 L
O=C1NCCc2nc(OCc3cccc(F)c3)ccc21 — Irwin test score (measured: Irritability; Sprague-Dawley rat male; oral, 100 mg/kg, 4 h; direction not given): 0.17
CN1CCN(c2cccc3c2CCN(C(=O)/C=C/c2c(-n4cnnn4)ccc(Cl)c2F)[C@@H]3C(=O)Nc2ccc(C(=O)O)cc2)C(=O)C1 — subjects with nausea (healthy human subjects; intravenous infusion, 4 mg/h, 2 h): 0%
N#Cc1ccc2c(c1)[C@H]1CCCN(C(=O)c3ccc4[nH]cnc4c3)[C@H]1C2 — maximum ACTH level (human; 20 mg, day 7): 17.1 pmol/L
Nc1ncnc2c1c(-c1ccc(Oc3ccccc3)cc1)nn2[C@@H]1CCCN(C(=O)C(O)CO)C1 (stereo partly shown) — specificity (measured: maximal concentration; B-LPD patients; hypertension risk threshold, ROC): 70.7%
CC(C(=O)Nc1ccc([C@H]2[C@@H](F)[C@@H](F)C[C@@H](F)[C@H]2F)cc1)n1cncn1 (stereo partly shown) — hepatic clearance (cynomolgus liver microsomes; 1 µM): 4.9 mL/min/kg
COc1ccc2c(c1)CN(C(=O)CCN1CCC(Cc3ccccc3)CC1)CC[S@@+]2[O-] — QT interval (telemetry; conscious male beagle dogs; intravenous, 2 mg/kg, 4 h): 224 ± 11 ms
O=C(O)CCC(=O)O.[2H]C([2H])([2H])Oc1cc(C)c2[nH]ccc2c1CN1CC[C@@H](C2CC2)C[C@H]1c1ccc(C(=O)O)cc1 — TEAE elevated blood triglycerides (healthy Chinese subjects; 200 mg, single ascending dose): 16.7%
CN1C(=O)[C@@H](NC(=O)c2nnc(Cc3ccccc3)[nH]2)COc2cccnc21 — Tmax (human, plasma; oral, 100 mg once daily, day 14, median): 3 h
CN(C)CCC(=O)Nc1ccc([C@H]2[C@@H](F)[C@@H](F)C[C@@H](F)[C@H]2F)cc1 — hepatic clearance (liver microsome stability; mouse liver microsomes; 1 µM): 70 mL/min/kg
Fc1ccc(CCCCN2CCN(c3ccccn3)CC2)cc1 — tissue/plasma ratio (rat, brain and plasma; intraperitoneal, 50 mg/kg single, at Cmax; baseline: brain over plasma): 1.08
Cc1ccc([C@@H]2O[C@H](CO)[C@@H](O)[C@H](O)[C@H]2O)cc1Cc1ccc(-c2ccc(F)cc2)s1 — urinary phosphate excretion change (measured: inorganic phosphorus; Japanese type 2 diabetes patients; 400 mg, day 18, 24 h urine collection; baseline: baseline): 116 mg
Cc1ccc(C(=O)N(CCCN)C(c2nc3snc(C)c3c(=O)n2Cc2ccccc2)C(C)C)cc1 (stereo not shown) — patients with CTCAE grade ≥3 events (human patients; intravenous, 2 mg/day): 100%
CC(=O)N1CC(C(=O)Nc2ccc([C@H]3[C@@H](F)[C@@H](F)C[C@@H](F)[C@H]3F)cc2)C1 — hepatic clearance (liver microsome stability; dog liver microsomes; 1 µM): 7.3 mL/min/kg
O=C([O-])CN1CCN(CC(=O)[O-])CCN([C@H](CO)[C@H](O)CO)CCN(CC(=O)[O-])CC1.[Gd+3] (racemic) — Gd concentration (ICP-MS; rat, femur bone marrow; intravenous, 0.6 mmol Gd/kg, 1 week): 2.3 nmol/g
CC[C@@H]([C@H](C)O)n1ncn(-c2ccc(N3CCN(c4ccc(OC[C@@H]5CO[C@@](Cn6cncn6)(c6ccc(F)cc6F)C5)cc4)CC3)cc2)c1=O — stability relative error (rat plasma; 800 ng/mL, three freeze-thaw cycles; baseline: nominal concentration): -12.8%
Cc1nc(-c2ccc(OCC(C)C)c(C#N)c2)sc1C(=O)O — subjects with neutrophil count decreased (healthy Chinese subjects; oral, 40 mg, fed): 5%
CCCCC1=NC2(CCCC2)C(=O)N1Cc1ccc(-c2ccccc2S(=O)(=O)Nc2noc(C)c2C)c(COCC)c1 — Cmax (healthy adult volunteers, plasma; oral, 800 mg, 14 days repeated dosing, fasted, crushed tablet): 9810 ng/mL
CN1CCN(C(=O)c2ccc([C@H]3[C@@H](F)[C@@H](F)C[C@@H](F)[C@H]3F)cc2)CC1=O — hepatic clearance (liver microsome stability; mouse liver microsomes; 1 µM): 14 mL/min/kg
COc1cc2nccc(Oc3ccc(NC(=O)c4cc5c(n(-c6ccccc6)c4=O)CCCC5=O)nc3)c2cc1OC — patients with Klebsiella sepsis (human, relapsed/refractory AML; oral, dose not given, grade ≥3, any causality, all doses): 10%
Cc1cc(C)c(CNC(=O)c2cc(Cl)c3c(c2C)O[C@@](C)([C@H]2CC[C@H](N(C)C)CC2)O3)c(=O)[nH]1 — fu (ultracentrifugation; glycoprotein, alpha-1-acid, 0.1%; 600 ng/mL, 160 min): 0.077
CC(=O)O[C@H]1C(=O)[C@@]2(C)[C@H]([C@H](OC(=O)c3ccccc3)[C@]3(O)C[C@H](OC(=O)[C@H](O)[C@@H](NC(=O)c4ccccc4)c4ccccc4)C(C)=C1C3(C)C)[C@]1(OC(C)=O)CO[C@@H]1C[C@@H]2O — adverse event incidence (measured: Anaemia; patients with advanced solid tumours; intravenous, dose not given, grade 1 and 2, possibly related to drug): 33%
CN(C)N=Nc1[nH]cnc1C(N)=O — AUC(0-8h) (human patients, plasma; intravenous, 1000 mg/m^2 over 1 h, cycle 2 day 1, co-administered with another drug): 130000 ng·h/mL
N#CCNC(=O)c1ccc(-c2ccnc(Nc3ccc(N4CCOCC4)cc3)n2)cc1 — AUCinf ratio (healthy human volunteers, plasma; oral, dose not given, with: multiple-dose rifampin; baseline: compound alone): 84.8%
CCOc1c([C@H](C)n2nc(C)c3c(N)ncnc32)cc(Cl)c(F)c1[C@@H]1CNC(=O)C1 — Cmin (patients, monotherapy; oral, 30 mg once daily, cycle 1 day 15): 295 ± 83.1 nM
Cc1cc(C)c(CNC(=O)c2cc(Cl)c3c(c2C)O[C@@](C)([C@H]2CC[C@H](N(C)C)CC2)O3)c(=O)[nH]1 — patients with TEAE (CTCAE v4.0, measured: neutrophil count decreased; human relapsed/refractory NHL; oral, 200 mg once daily, onset after cycle 1 day 1, overall treatment period): 25%
CCc1cc2ncc(CN3CCN(c4ccc(C(=O)NC)nc4)CC3)cc2[nH]c1=O — Lymphocytes count ratio (female rat, blood; oral, 25 mg/kg/day, 4 weeks; baseline: vehicle control): 0.77
CCN1/C(=C/C(C)=O)Sc2ccc(F)cc21 — heart rate change (cynomolgus monkey; oral, 100 mg/kg, 24 h post-dose; baseline: pre-dose): 110 ± 12.3%
COc1ccnc(C(=O)NC(CO)C(=O)O)c1O (racemic) — KFoc (soil adsorption; clay loam soil; pH 7.2, organic carbon 4.4 %): 138 mL/g
CSCC[C@H](NC(=O)[C@H](CCCCN)NC(=O)[C@H](CCCNC(=N)N)NC(=O)[C@H](CO)NC(=O)[C@H](Cc1c[nH]c2ccccc12)NC(=O)[C@H](CCCNC(=N)N)NC(=O)[C@H](CC(C)C)NC(=O)[C@@H](N)CCSC)C(=O)N1CCC[C@H]1C(=O)N[C@@H](CS)C(=O)N[C@H](C(=O)N[C@@H](CO)C(N)=O)C(C)C — remaining activity (12G5 competition, SUP-T1 cells; human plasma; 20 µM, 2 h, 37 °C): 4 ± 0.5%
OC[C@H]1O[C@@H](c2ccc(F)c(Cc3cc4ccccc4s3)c2)[C@H](O)[C@@H](O)[C@@H]1O — hypoglycaemia-related adverse event (Japanese patients, type 1 diabetes; oral, 50 mg/day, onset day 8; baseline: patients): 4%
COC(=O)N[C@@H](C)CNc1nccc(-c2cn(C(C)C)nc2-c2cc(Cl)cc(NS(C)(=O)=O)c2F)n1 — AUCinf increase (human, plasma; oral, 50 mg, single dose, geometric mean, with: diltiazem; baseline: compound alone): ~83% and 83% and ~80%

Repeated from above:
Nc1ncnc2c1c(-c1ccc(Oc3ccccc3)cc1)nn2[C@@H]1CCCN(C(=O)C(O)CO)C1 (stereo partly shown) — specificity (measured: maximal concentration; B-LPD patients; hypertension risk threshold, ROC): 70.7%
NC1(C(=O)N[C@@H](CCO)c2ccc(Cl)cc2)CCN(c2nc[nH]c3nccc2-3)CC1 — incidence of Dysuria (metastatic CRPC patients; 480 mg b.i.d., grade 3 to 4, treatment-related, with: enzalutamide 160 mg daily): 0%
CCOc1c([C@H](C)n2nc(C)c3c(N)ncnc32)cc(Cl)c(F)c1[C@@H]1CNC(=O)C1 — Cmin (patients, monotherapy; oral, 30 mg once daily, cycle 1 day 15): 295 ± 83.1 nM
COc1ccc2[nH]c([S+]([O-])Cc3ncc(C)c(OC)c3C)nc2c1 (stereo not shown) — AUC(0-inf) (healthy Chinese volunteers, plasma; oral, 20 mg, enteric-coated capsules, CYP2C19 intermediate metabolizers): 804 ± 532 ng·h/mL
COc1cc(C(=O)NC2CCN(C)CC2)c(F)cc1Nc1ncc(C(F)(F)F)c(Oc2cccc3c2C(=O)N(C)C3)n1 — dose-normalised AUC(tau) at steady state (human patients, plasma; oral, 300 mg once daily repeated, geometric mean): 265 nmol·h/L per mg
